# Results of several laboratories.
# Each line is one published result; not all experiments were run side by side.
Structure (SMILES),assay,system,setting,unbound fraction
NC(=O)[C@@H]1CC(F)(F)CN1C(=O)c1ccc(N2CC(F)(F)C2)c(OCC2CC2)n1,equilibrium dialysis,human plasma,,0.0843
N=C(CC(O)c1cc2c(F)cc(F)cc2c2cc(C(F)(F)F)ccc12)Nc1ccc(Br)cc1 (centres unmarked),equilibrium dialysis,diluted human plasma,"100 ng/mL, 24 h, plasma dilution 1:10",0.0009
Cc1nc([C@@](C)(CC2CC2)NC(=O)c2cc(OCC(F)(F)F)c(C3CC3)cn2)no1,equilibrium dialysis,mouse plasma,,0.009
CC(C)CC(=O)OC[C@H]1O[C@@](C#N)(c2ccc3c(N)ncnn23)[C@H](O)[C@@H]1O,plasma protein binding,mouse plasma,9 µM,0.163
CC(=O)c1c(C)c2cnc(Nc3ccc(C4CCN(CCS(C)(=O)=O)CC4)cn3)nc2n(C2CCCC2)c1=O,,dogs plasma,,0.04
CC(C)NCC(O)COc1cccc2ccccc12 (centres unmarked),plasma protein binding,dog plasma,,0.133
C/C=C1/CN2CC[C@]34C(=C(C(=O)OC)[C@H]1C[C@H]23)Nc1ccccc14,,rat plasma,"1 µM, 6 h",0.18
CC(=O)CC(c1ccccc1)c1c(O)c2ccccc2oc1=O (centres unmarked),plasma protein binding,rat plasma,,0.0062
O=c1c2cc(Cl)ccc2[nH]c(=S)n1Cc1cccnc1,,human plasma,10 µM,0.013
Cc1nonc1Cn1nnc2c(N3CC[C@H](O)C3)nc(C(C)(C)C)nc21,equilibrium dialysis,mouse plasma,,0.0088
N=C(CC(O)c1cc2c(F)cc(F)cc2c2cc(C(F)(F)F)ccc12)Nc1ccc(F)c(F)c1 (centres unmarked),equilibrium dialysis,diluted human plasma,"100 ng/mL, 24 h, plasma dilution 1:10",0.0022

# Some of these lines once more:
Structure (SMILES),assay,system,setting,unbound fraction
O=c1c2cc(Cl)ccc2[nH]c(=S)n1Cc1cccnc1,,human plasma,10 µM,0.013
